Assay results collected from several papers.
Compare with care: the assays were run in different laboratories. ± gives the spread as reported.
Cell line: A549

[Cl-].[Cl-].[Ru+2].c1ccc(-c2ccccn2)nc1.c1ccc(-c2ccccn2)nc1.c1cnc2c(c1)ccc1cccnc12
time to plateau uptake (LC-MS/MS; 3 µM): 12 h

FC(F)(F)c1ccnc(-c2cc(C(F)(F)F)ccn2)c1.FC(F)(F)c1ccnc(-c2cc(C(F)(F)F)ccn2)c1.[Cl-].[Cl-].[Ru+2].c1cnc2c(c1)c1nc[nH]c1c1cccnc12
EC50 (cell growth or viability, resazurin; dark): > 300 µM

CC1=C(Cn2c3ccc(Br)c(=O)c-3nc3ccccc32)CCC(C)(C)C1
selectivity index (cytotoxicity, WST-8; relative to: IC50 MRC5 over IC50 A549): 0.82

COc1ccc([C@@H]2CC(=O)c3c(O)cc(O[C@@H]4O[C@H](CO[C@@H]5O[C@@H](C)[C@H](O)[C@@H](O)[C@H]5O)[C@@H](O)[C@H](O)[C@H]4O)cc3O2)cc1O
cell count (trypan blue exclusion; 150 µg/mL, 72 h): 12100 ± 409

FC(F)(F)c1ccnc(-c2cc(C(F)(F)F)ccn2)c1.FC(F)(F)c1ccnc(-c2cc(C(F)(F)F)ccn2)c1.[Cl-].[Cl-].[Ru+2].c1csc(-c2nc3c4cccnc4c4ncccc4c3[nH]2)c1
EC50 (cell viability; 100 J/cm2 light, normoxia, together with: visible light 400-700 nm): 29 µM

CC(=O)c1cccc(NC2C(N)C(NC(=O)N(C)C)(C(C)O)C(O)C2(O)COC(=O)c2c(C)cccc2O)c1 (stereo not drawn)
EC50 (cell growth or viability): 0.032 µM

CCCC1OC2CC3C4CCC5=CC(=O)C=CC5(C)C4C(O)CC3(C)C2(C(=O)COC(=O)C(C)N)O1 (stereo not drawn)
inhibition (IL-6 release, inhibitor, ELISA; 1 nM, 24 h, LPS-stimulated): > 50%

CC(=O)OCC1=CCC2[C@]3(C)COC(c4ccccc4)O[C@@H]3CC[C@@]2(C)[C@@H]1/C=C/C1=CCOC1=O (stereo partly drawn)
inhibition (cell growth or viability, MTT; 20 µM, 48 h): 48%

CCN1CCC2(CC1)C/C(=N\NC(=O)Nc1ccccc1)c1ccccc1O2
apoptotic cells (annexin V-FITC/PI; concentration not given, 24 h, Early apoptosis): 28.2%

CC(=O)OC[C@H]1O[C@@H](Sc2sc(C(=O)c3ccc(C)cc3)c(N)c2-c2nc3ccccc3s2)[C@H](OC(C)=O)[C@@H](OC(C)=O)[C@@H]1OC(C)=O
growth (SRB; 10 µM, 48 h): 81.9%

S=c1n(-c2ccccc2)c2c3ccccc3nc3[n+]2[n]1[Ir-3]12([S]3)([c]3ccccc3-c3sc4ccccc4[n+]31)[c]1ccccc1-c1sc3ccccc3[n+]12
phototoxicity index (relative to: IC50 dark over IC50 light): > 3570

Nc1nccc(-n2cc(C(=O)N[C@H]3CCCNC3)c3ccc(C#CC4(O)CCCCC4)cc32)n1
cell migration (wound-healing; 5 µM): 64%

CC1=CC(C)=[N+]2C1=C(CO)c1c(C)cc(C)n1[B-]2(C)C
phototoxicity index (resazurin; 0.1667 h, together with: 510 nm light, 10 min; relative to: dark over light IC50): 100 ± 70

[Cl-].[Cl][Ru-]1[S+]=C(N2CCCC2)N[N+]1=Cc1ccc(N(c2ccccc2)c2ccccc2)cc1.c1ccccc1
colony formation (10 µM, 24 h, then 10 days growth): inhibited

Cc1ccc(C(C)C)cc1.Oc1ccccc1C=NNC1=Nc2ccccc2-c2[nH]c3ccc(Br)cc3c2C1.[Cl-].[Cl][Ru+]
inhibition (DNA synthesis, BrdU incorporation; 5 µM, 24 h): ~50%

COc1cc(CNC(=O)C[C@H](C)CCC=C(C)C)ccc1OCc1cn(-c2ccc(Cl)c(Cl)c2)nn1
cells in S phase (flow cytometry propidium iodide; 10 µM, 48 h): 50.6%

O=C(CSc1nc2ccccc2s1)Nc1nonc1[N+](=O)[O-]
GI50 (cell growth or viability, ATP luminescence): > 40 µM

CN(C)c1cccc2c(S(=O)(=O)NCCCCCC(=O)NO)cccc12
cells in S phase (cell cycle, propidium iodide flow cytometry; 10 µM): 2.03%

Cc1cccc(NCC(=O)Nc2nc3ccccc3s2)c1
inhibition (cell growth or viability, MTT; 100 µM, 72 h): 3.73%

O=C(CSC(=S)N1CCCCCC1)Nc1ccc2c(c1)C(=O)c1ccccc1C2=O
phosphotyrosine staining (25 µM, 4 h): no effect

[Cl-].[Cl-].[Ru+2].c1ccc(-c2ccccn2)nc1.c1ccc(-c2ccccn2)nc1.c1ccc(-c2ccnc3c2ccc2c(-c4ccccc4)ccnc23)cc1
oxygen consumption rate (Seahorse MitoStress; concentration not given, 1 h, dark): no effect

CCN(CC)c1ccc2c(c1)Oc1cc(N(CC)CC)ccc1C21c2ccccc2C(=O)N1N=Cc1c[c-]c(-c2ccccn2)cc1.Cc1c(C)c(-c2ccc(-c3ccccc3)cc2)[c-](C)c1C.[Cl-].[Ir+3]
Pearson correlation coefficient (confocal microscopy, refers to: lysosome colocalisation; 1×IC50, 1 h, together with: LysoTracker Deep Red 500 nM): 0.87

COc1cc(C(=O)c2[nH]c(N)nc2-c2cccs2)cc(OC)c1OC
inhibition (cell migration; 0.1 µM, 10 h): 50%

N=C(N)NCCC[C@@H]1NC(=O)[C@H](CCCCN)NC(=O)[C@@H](Cc2ccc(O)cc2)NC(=O)[C@H](CC(=O)O)NC(=O)CNC1=O
GI50 (cell growth or viability, MTT): 61 µM

Cc1cccc(-c2cccc(C)n2)n1.Cc1cccc(-c2cccc(C)n2)n1.[Cl-].[Cl-].[Ru+2].c1ccc(-c2ccnc3c2ccc2c(-c4ccccc4)ccnc23)cc1
EC50 (cell growth or viability; 72 h, dark): 9.7 µM

[Cl-].[Cl-].[Ru+2].c1ccc(-c2ccccn2)nc1.c1ccc(-c2ccccn2)nc1.c1ccc(-c2ccccn2)nc1
lowest concentration inhibiting OCR (oxygen consumption rate, Seahorse extracellular flux; 1 h, together with: indigo light 450 nm, 29.1 J/cm2): > 25 µM

C[C@H]1O[C@@H]2C3=C(O[C@]2(C)[C@@]1(O)C=O)C(=O)c1c(O)cccc1C3=O
EC50 (cell growth or viability, MTT; 48 h): 3.51 µg/mL

COc1ccc([C@@H]2CC(=O)c3c(O)cc(O[C@@H]4O[C@H](CO[C@@H]5O[C@@H](C)[C@H](O)[C@@H](O)[C@H]5O)[C@@H](O[C@H]5O[C@H](CO)[C@@H](O)[C@H](O)[C@H]5O)[C@H](O)[C@H]4O)cc3O2)cc1O
cell count (trypan blue exclusion; 150 µg/mL, 24 h): 6250 ± 711

[Cl-].[Cl-].[Ru+2].c1ccc2nc(-c3ccc4ccccc4n3)ccc2c1.c1cnc2c(c1)ccc1cccnc12.c1cnc2c(c1)ccc1cccnc12
maximal respiration reduction (Seahorse Mito Stress Test; concentration not given, together with: 450 nm light 29.1 J/cm2; relative to: vehicle): < 30%

Cc1ccc(C(C)C)cc1.O=C([N-]c1nc2ccccc2[nH]1)c1cnccn1.[Cl-].[Ru+2]
selectivity index (cytotoxicity, MTT; relative to: KMST-6 over A549): > 2
